Experimental data gathered from unrelated publications.
Parts stem from different laboratories: compare values within a part only. Changes are numbered by the printed parent chain.

Series 1 — method: universal PBM; molecule type: double-stranded DNA, one strand shown; matrix: in vitro; concentration: 600 nM; direction: higher = stronger binding
Target: Sal-like protein 4, full length isoform A (SALL4, Homo sapiens, UniProt Q9UJQ4, residues 1-1053)
UniProt Q9UJQ4, sequence (whole entry, looked up): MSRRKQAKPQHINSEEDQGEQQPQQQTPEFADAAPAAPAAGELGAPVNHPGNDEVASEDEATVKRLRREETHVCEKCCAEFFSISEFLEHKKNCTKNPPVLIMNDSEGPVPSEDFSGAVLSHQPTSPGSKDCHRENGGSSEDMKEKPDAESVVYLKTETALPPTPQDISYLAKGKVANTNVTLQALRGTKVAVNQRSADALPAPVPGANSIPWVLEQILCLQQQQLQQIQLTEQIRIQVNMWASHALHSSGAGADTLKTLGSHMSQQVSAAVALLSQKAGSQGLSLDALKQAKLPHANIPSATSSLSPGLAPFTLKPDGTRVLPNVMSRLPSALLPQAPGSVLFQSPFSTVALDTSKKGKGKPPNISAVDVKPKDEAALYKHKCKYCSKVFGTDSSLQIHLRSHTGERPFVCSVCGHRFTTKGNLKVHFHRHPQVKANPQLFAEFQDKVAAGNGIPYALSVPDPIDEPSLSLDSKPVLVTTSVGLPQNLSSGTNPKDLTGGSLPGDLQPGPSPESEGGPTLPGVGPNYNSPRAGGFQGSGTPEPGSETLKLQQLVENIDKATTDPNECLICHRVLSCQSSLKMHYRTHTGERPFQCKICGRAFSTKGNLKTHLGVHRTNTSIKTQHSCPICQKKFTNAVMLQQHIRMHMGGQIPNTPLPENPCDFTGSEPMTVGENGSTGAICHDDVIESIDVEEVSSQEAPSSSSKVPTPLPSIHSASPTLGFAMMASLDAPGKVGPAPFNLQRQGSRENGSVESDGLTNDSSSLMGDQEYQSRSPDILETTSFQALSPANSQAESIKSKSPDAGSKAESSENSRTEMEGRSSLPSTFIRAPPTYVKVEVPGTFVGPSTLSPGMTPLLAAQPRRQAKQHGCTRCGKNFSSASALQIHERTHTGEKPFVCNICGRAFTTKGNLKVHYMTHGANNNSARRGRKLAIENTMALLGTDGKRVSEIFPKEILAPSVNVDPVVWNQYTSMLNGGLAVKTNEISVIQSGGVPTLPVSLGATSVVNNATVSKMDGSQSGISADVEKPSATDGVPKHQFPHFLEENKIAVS
Notes: 8-mer, flanks averaged, mean of replicates
For `GGGAGTGA`, the E-score was -0.0515.
`ACTCCTTC` has an E-score of -0.122.
`TACTGTGA` has an E-score of 0.0895.
With `GCGTGACA` the E-score was -0.0792.
With `CCAGTCGC` the E-score was -0.237.
For `CGGGTTGC`, the E-score was -0.213.
`AAGGTTCT` has an E-score of -0.00417.
For `CGCTACCA`, the E-score was -0.156.
`AGAATAAA` has an E-score of 0.357.
`TGAAAACA` gave an E-score of 0.269.
The E-score of `CCAAGTAC` is reported as -0.0796.
The E-score of `ACCTGGAC` is reported as -0.259.
`AAGCTCAA` has an E-score of -0.0463.
The E-score of `CCTTGGGA` is reported as -0.244.
`AGGATCAC` gave an E-score of -0.0552.
`GTTCCCTA` gave an E-score of -0.0283.
`GAGGATAC` gave an E-score of 0.0382.
For `ACCGTGCA`, the E-score was -0.186.
`CGTCTAGC` gave an E-score of -0.0398.
For `AAAGTTAG`, the E-score was 0.132.
With `CCTAGTCG` the E-score was -0.119.
The E-score of `GAAAGTGC` is reported as -0.152.
The E-score of `AAGTAGAG` is reported as 0.135.
With `ACGAGGGA` the E-score was 0.0182.
The E-score of `CGCGGCCC` is reported as -0.422.

Series 2 — method: RNA Bind-n-Seq; molecule type: RNA; matrix: in vitro; concentration: 365 nM; baseline: no-protein control; direction: higher = stronger binding
Target: RNA binding protein fox-1 homolog 2, RRM domain, GST-SBP tag (RBFOX2, Homo sapiens, UniProt O43251-10, residues 100-194)
Notes: natural RNA segment, single round, ends assumed
All sequences stand within: GGGAGUUCUACAGUCCGACGAUC … UGGAAUUCUCGGGUGCCAA
Residues (chain): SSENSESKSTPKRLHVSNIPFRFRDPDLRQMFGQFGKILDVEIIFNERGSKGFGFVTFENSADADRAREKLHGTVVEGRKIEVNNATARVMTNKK
`UGUUUUUUUCUAGCCUACCUAUAGUUGUUGGCCUUUUUGCAUAUAACUCUCGGGUAAUAUUUUGAAGCAUGCUGACCAUCCAGGCAUAUAGUAUUUUCAAGAAAUGACUG` — result for “RBNS enrichment (R)”: 0.597.
For `UUUUCUGAACACCUAUGCAGGUCUUAUUUACAGUAGUUACUAAGGGAACACACAAAGAAUUACACAACGUUUUCCUCAAGAAAAUGGUACAAAACACAACCGAGGAGCGU`, “RBNS enrichment (R)” read 0.549.
`AUCAGGCUUCUGCAAAAGCUCUUCUUCCUGAAGACAGACCCAGCCUUUGUGCUCUCACCCUCCACUCUGGUAAAGCUGCACCUCUGGGGGAAUGAGGGGCUGCAGGAAUC` — result for “RBNS enrichment (R)”: 0.467.
Under “RBNS enrichment (R)”, `ACCUUGCAGCAGAUUUGACAUUGCUGCAUAGAAGGGGCAGGUGUUGGUUUUUGUUUCUUGCAUUUCUCUGGGAUGUGAAACACUUGGCUAACAAACACAACUAAGGCCUC` is recorded as 0.543.
Under “RBNS enrichment (R)”, `CUUCUAUUGUUUGGGCCUUGUGGAUAAUGUACAGAUUUAAAAACAAAUCUUGUUGCUGAUUUGUCCAUUUCUUUCCCUGCACUUUGUUACAUCUGGGAUACAGUCUAACU` is recorded as 0.272.
For `AUUUUCAAACUGAAAACUAAUCAAAUAUAGUGCCUAUUUAGUCUCAAAAUAAGGUAACUAUUAACUUGAUUAUACUAUAUAAUAUUCUCAAUUACAUUUGAAUUUAAAAA`, “RBNS enrichment (R)” read 0.93.
For `CCUUUACCACUAUCCAUGUGAGCAUUGACAAAUCAUGGCUUAGAGGUGCUCACUGACUCGCUAAGACGACUUUGGCCCUGUUGAUGACUGGUGCUGUGCUCCAGCCUUAU`, “RBNS enrichment (R)” read 0.296.
Under “RBNS enrichment (R)”, `AAAUCACAAACCCAUAGAAAAGUAAGUAGGCUAAGUUGGGGAGGCUCAAACCAUUAAGGGUUAAAAAUACAUCUUAAACAUUGGAAAGCUCUUCUAGCUGAAUCUGAAAU` is recorded as 0.487.
`GUUUAGCCAGCACACCCAAUGGUUUCACUAACUAGCCCAGUUGACCUUUUUGAAGUUUGAGCCUUGAGCACCUUCAACAAAAUUGAGCACUCUGAUUAGGAUAUCCACUU`: “RBNS enrichment (R)” 0.667.
`GGCCGGCCUUCAGCGUCCGGUCAGGGAAGCGUGCAGCCCAAAUGGGCACUUGCAUGGGAGCCACAGAGGAGCGUCCCUGGGGAUUGUUGGGACCAUGCUGCCCCCACUCC` — result for “RBNS enrichment (R)”: 1.48.
Under “RBNS enrichment (R)”, `UAUGCAACAACUCCUGUACCCCAGUCCACGGUGUUCUGGCAGCAGGGACACCUGGGCCAAUGGGCCAUCUGGACCAAAGGUGGGGUGUGGGGCCCUGGAUGGCAGCUCUG` is recorded as 0.381.
For `UGCUCUAUACAAAUUCAGCACCUUUGACUGGUUUUGAGUGUGCAUUUUCUUUUAGUGAUACUGUUACCAGUGGCAGUUUGCUUUACAGAGGGGGAGCCCAGGUGGGAGAG`, “RBNS enrichment (R)” read 0.309.

Series 3 — method: DHFR PCA, deep sequencing; matrix: yeast; added: (+)-ABA 1.4 µM; baseline: wild-type fitted maximum; direction: higher = stronger binding
Target: ABI1, truncated, D143A, DHFR fusion (Arabidopsis thaliana)
Notes: methotrexate growth selection, single substitutions
Starting sequence: PYL1, truncated, DHFR fusion (Arabidopsis thaliana); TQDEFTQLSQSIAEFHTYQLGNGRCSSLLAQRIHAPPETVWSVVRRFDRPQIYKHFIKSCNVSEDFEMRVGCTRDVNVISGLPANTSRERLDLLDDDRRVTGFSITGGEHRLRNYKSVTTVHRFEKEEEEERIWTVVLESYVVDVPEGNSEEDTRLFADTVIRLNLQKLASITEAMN
For `Q51I`, “relative binding score” read -7.36%.
`A30V`: “relative binding score” 53.4%.
`I133V`: “relative binding score” 78.5%.
For `C72N`, “relative binding score” read 23%.
Under “relative binding score”, `K54G` is recorded as -3.58%.
For `G102S`, “relative binding score” read 48%.
For `D153S`, “relative binding score” read -5.36%.
For `A175N`, “relative binding score” read 42.2%.
`N77M`: “relative binding score” 60.8%.
`L20K`: “relative binding score” 53.3%.
For `E64L`, “relative binding score” read 28%.
`E127F` — result for “relative binding score”: 53.8%.
`R69F` — result for “relative binding score”: 14.5%.
For `V78R`, “relative binding score” read 16%.
`T160R`: “relative binding score” -0.667%.
`E14F` — result for “relative binding score”: -18.6%.
`N165W`: “relative binding score” 12.1%.
Under “relative binding score”, `D75W` is recorded as 62.6%.

Series 4 — target: CCNB1, cyclin fold, Cln2 fusion (human); method: yeast growth competition, sequencing; matrix: yeast; notes: strong parent motif; baseline: not given; direction: higher = stronger binding
Starting sequence: PKN2 docking peptide (human); VSAVRKLDFSDTM; partner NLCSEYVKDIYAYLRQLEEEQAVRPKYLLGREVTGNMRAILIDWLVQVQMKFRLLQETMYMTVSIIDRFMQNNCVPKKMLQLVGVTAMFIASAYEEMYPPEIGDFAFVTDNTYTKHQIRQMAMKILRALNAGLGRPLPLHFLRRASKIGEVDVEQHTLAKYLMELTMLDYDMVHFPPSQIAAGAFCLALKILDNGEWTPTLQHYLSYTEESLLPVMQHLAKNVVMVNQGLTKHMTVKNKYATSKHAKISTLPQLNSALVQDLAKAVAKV
For `VSAVRLLDFSDTM [K6L]`, “normalised enrichment score” read 0.971.
For `VSTVRKLDFSDTM [A3T]`, “normalised enrichment score” read 3.59.
Under “normalised enrichment score”, `VSAVRKLIFSDTM [D8I]` is recorded as 2.48.
For `VSAVRKLDNSDTM [F9N]`, “normalised enrichment score” read 0.295.
`VSAVRKLDFSHTM [D11H]` — result for “normalised enrichment score”: 2.05.
Under “normalised enrichment score”, `VSAKRKLDFSDTM [V4K]` is recorded as 1.29.
Under “normalised enrichment score”, `VSAVRKLVFSDTM [D8V]` is recorded as 2.83.
`VSAVIKLDFSDTM [R5I]` — result for “normalised enrichment score”: 1.68.
`VSAWRKLDFSDTM [V4W]`: “normalised enrichment score” 0.535.
`VSAVRKLDHSDTM [F9H]` — result for “normalised enrichment score”: 0.277.
Under “normalised enrichment score”, `VSAVRKLDFSTTM [D11T]` is recorded as 2.7.
Under “normalised enrichment score”, `VSAVRKLDFSDWM [T12W]` is recorded as 3.72.
`VSAVRKLDFSNTM [D11N]`: “normalised enrichment score” 2.92.
`VSAVRKNDFSDTM [L7N]` — result for “normalised enrichment score”: -0.0426.
Under “normalised enrichment score”, `VSCVRKLDFSDTM [A3C]` is recorded as 4.72.
Under “normalised enrichment score”, `VSAVYKLDFSDTM [R5Y]` is recorded as 0.543.
For `VSAVRKLDFHDTM [S10H]`, “normalised enrichment score” read 3.29.
`VSAVRKLDFSPTM [D11P]` — result for “normalised enrichment score”: 3.41.
For `VSYVRKLDFSDTM [A3Y]`, “normalised enrichment score” read 2.5.
For `VSAVRKLDFIDTM [S10I]`, “normalised enrichment score” read 2.35.
`VSAVRKLDFMDTM [S10M]` — result for “normalised enrichment score”: 2.77.
`VSAVRKSDFSDTM [L7S]`: “normalised enrichment score” 0.356.
For `VSAVRKLDFSRTM [D11R]`, “normalised enrichment score” read 1.7.
For `VSAVRKLSFSDTM [D8S]`, “normalised enrichment score” read 4.38.
For `VSAVRRLDFSDTM [K6R]`, “normalised enrichment score” read 4.41.

Series 5 — target: OGT, full length, His-tagged (human); method: phage display, sequencing; matrix: in vitro; concentration: 1 µg OGT; baseline: input library; direction: higher = stronger binding; starting sequence: peptide; VAYPNSYMPKYQIST
Notes: single substitutions, 15-mer displayed peptide, unchanged parent 6.14
The fold enrichment of `VAYPNQYMPKYQIST [S6Q]` is reported as 10.3 fold.
`VAYPNSYMPKYQISI [T15I]` has a fold enrichment of 19.4 fold.
`VAYPNSYMPKPQIST [Y11P]` gave a fold enrichment of 0.0143 fold.
`VAYPNSYMPKYRIST [Q12R]` has a fold enrichment of 0.0395 fold.
`VAYPNSYMPKYQITT [S14T]` gave a fold enrichment of 9.15 fold.
The fold enrichment of `VAHPNSYMPKYQIST [Y3H]` is reported as 0.406 fold.
With `VAYPNSYMPIYQIST [K10I]` the fold enrichment was 2.32 fold.
With `VHYPNSYMPKYQIST [A2H]` the fold enrichment was 10.5 fold.
`VAYPNSGMPKYQIST [Y7G]` has a fold enrichment of 0.479 fold.
For `VAYPNSYMPKYFIST [Q12F]`, the fold enrichment was 1 fold.
For `VAYPNHYMPKYQIST [S6H]`, the fold enrichment was 4.1 fold.
The fold enrichment of `VAYLNSYMPKYQIST [P4L]` is reported as 7.68 fold.
`VAYPNSYMPHYQIST [K10H]` has a fold enrichment of 3.49 fold.
With `VAYPNSYMPKYEIST [Q12E]` the fold enrichment was 1.12 fold.
With `VAYVNSYMPKYQIST [P4V]` the fold enrichment was 5.83 fold.
For `VAYRNSYMPKYQIST [P4R]`, the fold enrichment was 15.5 fold.
`VAYSNSYMPKYQIST [P4S]` gave a fold enrichment of 6.86 fold.
`VAYPNSYMPKYVIST [Q12V]` gave a fold enrichment of 0.589 fold.
For `VAYPNSYMPKYQISW [T15W]`, the fold enrichment was 12.7 fold.
`VAYPLSYMPKYQIST [N5L]` has a fold enrichment of 4.95 fold.
With `VAYPNSQMPKYQIST [Y7Q]` the fold enrichment was 1.1 fold.

Repeated from above (series 5):
`VAYSNSYMPKYQIST [P4S]` gave a fold enrichment of 6.86 fold.
`VAYPNSYMPKYVIST [Q12V]` gave a fold enrichment of 0.589 fold.
For `VAYPNSYMPKYQISW [T15W]`, the fold enrichment was 12.7 fold.
`VAYPLSYMPKYQIST [N5L]` has a fold enrichment of 4.95 fold.
With `VAYPNSQMPKYQIST [Y7Q]` the fold enrichment was 1.1 fold.
